Measurements gathered from unrelated publications.
Each numbered part is a random draw from the data of one study; scales do not carry over between parts.
UniProt P42680, sequence (whole entry, looked up): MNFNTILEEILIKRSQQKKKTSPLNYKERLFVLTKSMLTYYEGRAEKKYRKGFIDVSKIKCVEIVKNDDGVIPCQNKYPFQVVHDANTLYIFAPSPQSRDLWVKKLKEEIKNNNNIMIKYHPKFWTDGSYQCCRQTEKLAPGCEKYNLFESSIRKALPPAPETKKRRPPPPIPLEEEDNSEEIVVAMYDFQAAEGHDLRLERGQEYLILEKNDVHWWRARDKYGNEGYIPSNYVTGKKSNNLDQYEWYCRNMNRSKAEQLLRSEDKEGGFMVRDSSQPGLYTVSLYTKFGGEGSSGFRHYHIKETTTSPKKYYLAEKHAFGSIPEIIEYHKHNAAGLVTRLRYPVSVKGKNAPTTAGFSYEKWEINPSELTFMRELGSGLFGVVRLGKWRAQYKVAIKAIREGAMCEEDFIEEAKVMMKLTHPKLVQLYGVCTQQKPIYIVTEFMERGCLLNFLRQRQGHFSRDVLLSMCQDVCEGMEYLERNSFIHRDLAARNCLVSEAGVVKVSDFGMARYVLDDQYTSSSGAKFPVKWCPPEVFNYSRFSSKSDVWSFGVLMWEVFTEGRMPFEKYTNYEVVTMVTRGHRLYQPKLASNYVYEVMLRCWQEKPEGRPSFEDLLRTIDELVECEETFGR
UniProt P17948, sequence (whole entry, looked up): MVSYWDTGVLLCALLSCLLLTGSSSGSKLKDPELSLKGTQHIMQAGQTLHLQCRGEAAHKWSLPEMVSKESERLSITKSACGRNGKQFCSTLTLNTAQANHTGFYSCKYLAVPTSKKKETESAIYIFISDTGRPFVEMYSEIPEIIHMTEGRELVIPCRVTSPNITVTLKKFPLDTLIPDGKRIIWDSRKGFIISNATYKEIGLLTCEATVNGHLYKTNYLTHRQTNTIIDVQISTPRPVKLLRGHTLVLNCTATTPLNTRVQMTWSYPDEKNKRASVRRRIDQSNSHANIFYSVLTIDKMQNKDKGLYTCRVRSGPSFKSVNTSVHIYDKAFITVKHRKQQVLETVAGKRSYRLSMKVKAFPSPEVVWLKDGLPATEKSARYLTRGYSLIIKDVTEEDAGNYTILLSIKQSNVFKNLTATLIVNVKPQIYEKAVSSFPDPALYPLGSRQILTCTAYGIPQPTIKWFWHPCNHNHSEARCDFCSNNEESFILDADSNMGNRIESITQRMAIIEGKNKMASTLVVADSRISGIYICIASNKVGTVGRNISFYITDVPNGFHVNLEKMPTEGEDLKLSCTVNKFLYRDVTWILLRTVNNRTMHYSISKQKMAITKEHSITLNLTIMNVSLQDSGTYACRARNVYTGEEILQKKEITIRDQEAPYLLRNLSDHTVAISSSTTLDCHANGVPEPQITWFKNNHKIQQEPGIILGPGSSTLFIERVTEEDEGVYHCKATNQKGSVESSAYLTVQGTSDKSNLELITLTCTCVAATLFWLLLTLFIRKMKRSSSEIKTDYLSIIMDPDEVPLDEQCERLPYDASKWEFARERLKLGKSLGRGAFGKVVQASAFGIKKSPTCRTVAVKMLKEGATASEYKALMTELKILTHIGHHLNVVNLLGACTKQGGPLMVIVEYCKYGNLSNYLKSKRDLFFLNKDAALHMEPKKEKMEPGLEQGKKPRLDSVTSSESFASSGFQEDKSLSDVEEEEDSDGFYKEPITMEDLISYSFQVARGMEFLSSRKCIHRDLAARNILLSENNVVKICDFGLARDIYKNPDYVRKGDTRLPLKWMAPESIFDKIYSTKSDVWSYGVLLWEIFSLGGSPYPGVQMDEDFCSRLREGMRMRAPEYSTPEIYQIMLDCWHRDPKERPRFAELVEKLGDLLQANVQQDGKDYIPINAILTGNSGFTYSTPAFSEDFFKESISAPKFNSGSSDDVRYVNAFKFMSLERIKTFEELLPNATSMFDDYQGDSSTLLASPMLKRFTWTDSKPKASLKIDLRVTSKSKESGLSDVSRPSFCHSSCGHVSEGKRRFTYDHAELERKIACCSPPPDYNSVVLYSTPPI
UniProt Q9UM73, sequence (whole entry, looked up): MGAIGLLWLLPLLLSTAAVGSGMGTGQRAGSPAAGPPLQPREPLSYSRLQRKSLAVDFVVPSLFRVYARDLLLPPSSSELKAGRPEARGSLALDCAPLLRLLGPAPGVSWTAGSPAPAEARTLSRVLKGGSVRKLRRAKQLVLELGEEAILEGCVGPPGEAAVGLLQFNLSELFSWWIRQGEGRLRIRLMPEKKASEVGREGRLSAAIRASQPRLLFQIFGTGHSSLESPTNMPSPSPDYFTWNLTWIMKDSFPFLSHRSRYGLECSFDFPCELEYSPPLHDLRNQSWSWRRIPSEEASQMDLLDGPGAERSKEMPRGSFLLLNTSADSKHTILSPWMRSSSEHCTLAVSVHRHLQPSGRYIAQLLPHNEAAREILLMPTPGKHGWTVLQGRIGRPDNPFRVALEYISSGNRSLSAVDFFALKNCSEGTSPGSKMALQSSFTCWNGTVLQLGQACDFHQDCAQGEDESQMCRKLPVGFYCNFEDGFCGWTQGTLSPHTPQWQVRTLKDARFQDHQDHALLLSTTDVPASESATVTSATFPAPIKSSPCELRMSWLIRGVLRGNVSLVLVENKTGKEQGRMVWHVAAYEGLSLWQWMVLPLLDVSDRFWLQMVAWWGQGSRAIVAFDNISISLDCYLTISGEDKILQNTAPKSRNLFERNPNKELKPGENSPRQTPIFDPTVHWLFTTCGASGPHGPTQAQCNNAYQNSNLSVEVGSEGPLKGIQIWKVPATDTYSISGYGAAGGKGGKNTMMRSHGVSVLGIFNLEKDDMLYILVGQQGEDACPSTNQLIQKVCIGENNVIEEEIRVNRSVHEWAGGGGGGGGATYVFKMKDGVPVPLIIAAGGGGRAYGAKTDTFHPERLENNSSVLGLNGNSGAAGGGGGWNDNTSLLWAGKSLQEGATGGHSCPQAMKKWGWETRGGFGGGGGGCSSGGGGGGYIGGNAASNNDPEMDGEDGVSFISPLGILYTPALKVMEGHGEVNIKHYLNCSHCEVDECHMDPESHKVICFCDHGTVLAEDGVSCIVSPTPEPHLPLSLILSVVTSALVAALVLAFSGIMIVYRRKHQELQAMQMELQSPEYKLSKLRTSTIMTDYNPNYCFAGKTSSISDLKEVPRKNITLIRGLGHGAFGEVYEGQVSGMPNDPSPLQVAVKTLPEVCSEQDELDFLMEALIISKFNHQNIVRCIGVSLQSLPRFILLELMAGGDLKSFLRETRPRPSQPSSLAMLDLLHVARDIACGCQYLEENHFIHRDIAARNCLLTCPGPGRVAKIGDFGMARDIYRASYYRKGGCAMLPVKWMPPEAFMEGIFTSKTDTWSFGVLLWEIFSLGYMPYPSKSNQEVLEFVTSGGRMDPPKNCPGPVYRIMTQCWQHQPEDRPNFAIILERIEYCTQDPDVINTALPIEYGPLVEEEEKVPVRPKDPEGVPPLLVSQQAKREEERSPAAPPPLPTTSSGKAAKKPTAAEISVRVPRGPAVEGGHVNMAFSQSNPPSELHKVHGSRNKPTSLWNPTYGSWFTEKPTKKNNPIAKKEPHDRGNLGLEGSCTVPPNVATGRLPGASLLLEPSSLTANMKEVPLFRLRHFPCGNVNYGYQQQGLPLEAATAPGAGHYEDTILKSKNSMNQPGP
UniProt P49760, sequence (whole entry, looked up): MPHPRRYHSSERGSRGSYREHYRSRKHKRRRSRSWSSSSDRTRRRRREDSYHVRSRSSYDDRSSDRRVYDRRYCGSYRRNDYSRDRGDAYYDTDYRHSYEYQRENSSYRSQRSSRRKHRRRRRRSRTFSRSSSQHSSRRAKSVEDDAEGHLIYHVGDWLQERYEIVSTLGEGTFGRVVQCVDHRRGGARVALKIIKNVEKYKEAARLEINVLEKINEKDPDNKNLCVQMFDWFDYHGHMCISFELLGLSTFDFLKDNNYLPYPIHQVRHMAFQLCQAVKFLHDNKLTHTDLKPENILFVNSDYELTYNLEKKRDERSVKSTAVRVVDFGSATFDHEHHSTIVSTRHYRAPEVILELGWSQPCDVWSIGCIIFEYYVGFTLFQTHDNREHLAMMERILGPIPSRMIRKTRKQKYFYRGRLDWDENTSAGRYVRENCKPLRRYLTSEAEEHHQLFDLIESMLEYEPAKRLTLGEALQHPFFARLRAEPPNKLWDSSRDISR
UniProt P49759, sequence (whole entry, looked up): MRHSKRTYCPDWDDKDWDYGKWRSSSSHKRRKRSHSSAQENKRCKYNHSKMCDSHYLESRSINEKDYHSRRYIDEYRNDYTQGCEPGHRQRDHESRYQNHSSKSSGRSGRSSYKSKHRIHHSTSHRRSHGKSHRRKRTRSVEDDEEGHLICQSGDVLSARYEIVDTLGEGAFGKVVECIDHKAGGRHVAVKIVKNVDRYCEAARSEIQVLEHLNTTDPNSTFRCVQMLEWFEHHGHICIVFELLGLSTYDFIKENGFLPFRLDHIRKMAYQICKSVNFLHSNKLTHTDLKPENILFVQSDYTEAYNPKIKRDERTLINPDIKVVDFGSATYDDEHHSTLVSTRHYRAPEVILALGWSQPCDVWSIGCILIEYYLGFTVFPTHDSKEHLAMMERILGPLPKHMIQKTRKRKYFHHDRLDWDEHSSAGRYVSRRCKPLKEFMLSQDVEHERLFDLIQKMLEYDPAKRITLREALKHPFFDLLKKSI
UniProt Q9BWU1, sequence (whole entry, looked up): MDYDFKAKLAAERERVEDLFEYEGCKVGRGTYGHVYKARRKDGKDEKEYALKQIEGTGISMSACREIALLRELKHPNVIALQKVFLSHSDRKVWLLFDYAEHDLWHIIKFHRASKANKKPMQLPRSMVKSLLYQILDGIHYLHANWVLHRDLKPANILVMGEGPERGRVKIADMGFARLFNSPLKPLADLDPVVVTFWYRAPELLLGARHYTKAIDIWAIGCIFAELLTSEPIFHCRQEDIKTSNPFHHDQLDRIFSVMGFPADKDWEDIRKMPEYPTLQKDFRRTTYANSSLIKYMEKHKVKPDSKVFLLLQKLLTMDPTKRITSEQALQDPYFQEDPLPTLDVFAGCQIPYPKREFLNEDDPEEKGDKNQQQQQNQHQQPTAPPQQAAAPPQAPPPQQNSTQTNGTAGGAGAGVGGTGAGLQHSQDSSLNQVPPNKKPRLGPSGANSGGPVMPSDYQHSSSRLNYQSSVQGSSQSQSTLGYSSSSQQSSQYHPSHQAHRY

Set 1
Structure (SMILES): Cc1nc(Nc2ncc(C(=O)Nc3c(C)cccc3Cl)s2)cc(N2CCN(CCO)CC2)n1
Action: inhibitor
Endpoint: inhibition
CHUK (Homo sapiens, UniProt O15111); 1 µM: < 50%
RIOK1 (Homo sapiens, UniProt Q9BRS2); 10 µM: < 50%
CAMKK2 (Homo sapiens, UniProt Q96RR4); 10 µM: < 50%
MAPK14 (Homo sapiens, UniProt Q16539); 1 µM: 100%
MAP2K4 (Homo sapiens, UniProt P45985); 10 µM: < 50%
MARK3 (Homo sapiens, UniProt P27448); 10 µM: < 50%
ALK (Homo sapiens, UniProt Q9UM73); 1 µM: < 50%
CDK19 (Homo sapiens, UniProt Q9BWU1); 1 µM: < 50%
CDK9 (Homo sapiens, UniProt P50750); 10 µM: < 50%
MYLK4 (Homo sapiens, UniProt Q86YV6); 10 µM: < 50%
MAP4K2 (Homo sapiens, UniProt Q12851); 10 µM: 72%

Set 2
SMILES: O=C1Cc2c([nH]c3ccc([N+](=O)[O-])cc23)-c2ccccc2N1
Observed: enzyme activity
Action: inhibitor
Tested at: 0.5 µM
Baseline: control
Endpoint: remaining activity
SGK2 (Homo sapiens, UniProt Q9HBY8): 111%
TEC (Homo sapiens, UniProt P42680): 137%
PAK1 (Homo sapiens, UniProt Q13153): 36.7%
JAK1 (Homo sapiens, UniProt P23458): 97.8%
CLK1 (Homo sapiens, UniProt P49759): 111%
TYRO3 (Homo sapiens, UniProt Q06418): 96.7%
PRKCZ (Homo sapiens, UniProt Q05513): 109%
CAMKK1 (Homo sapiens, UniProt Q8N5S9): 91.7%
SRPK1 (Homo sapiens, UniProt Q96SB4): 100%
EPHA2 (Homo sapiens, UniProt P29317): 92.7%
FLT1 (Homo sapiens, UniProt P17948): 98.2%
PRKCQ (Homo sapiens, UniProt Q04759): 98.2%
IGF1R (Homo sapiens, UniProt P08069): 93%
PAK6 (Homo sapiens, UniProt Q9NQU5): 101%
MUSK (Homo sapiens, UniProt O15146): 68.5%
CSNK1E (Homo sapiens, UniProt P49674): 95.9%
RPS6KA3 (Homo sapiens, UniProt P51812): 70.6%
SIK2 (Homo sapiens, UniProt Q9H0K1): 56.5%
CLK2 (Homo sapiens, UniProt P49760): 97.7%
CAMK1 (Homo sapiens, UniProt Q14012): 94.8%

Set 3
Host: human
Medium: microsomes or S9
Tested at: 2 µM
Time: 0.5 h
Endpoint: remaining compound
CC(=O)c1cc(CN2CCOCC2CC(=O)NCCc2ncnn2C)cs1 (stereo not drawn): 89.2%
Cc1csc(-c2cc(NC(=O)c3ccc(F)cc3F)c(C)s2)n1: 16.2%
COC(=O)c1ccc(C(=O)Nc2cc(F)ccc2NC(C)C)[nH]1: 38.6%
Cc1cc([S+]([O-])c2ccccc2)c(C)n1S(=O)(=O)c1ccccc1 (stereo not drawn): 1.62%
CCOC(=O)C1=C(c2ccccc2)c2cc3c(cc2C1=O)OCO3: 8.94%
COc1ccc(-c2nc(-c3nnn4c3COC(c3ccc(C)cc3)C4)no2)cn1 (stereo not drawn): 12.7%
Oc1ccc(/C=C/c2c3c(cc4c2[C@H](c2cc(O)cc(O)c2)[C@@H](c2ccc(O)cc2)O4)O[C@H](c2ccc(O)cc2)[C@H]3c2cc(O)cc(O)c2)cc1: 59.3%
Brc1cc(-c2noc([C@H]3CCCO3)n2)c2ncnn2c1: 35.9%
Cc1cc2cc[nH]c2cc1NC(=O)Cc1ccc(F)cc1F: 89.4%
Cc1cc2n(CCNC(=O)COc3ccc(F)cc3)ccn2n1: 57.7%
Oc1ccc(-c2nc(-c3ccc(F)c(F)c3)no2)cc1Cl: 58.7%

Set 4
SMILES: O=C(Nc1cnc(Oc2ccc(F)cc2)nc1)N1CCc2ncccc2[C@@H]1c1ccc(F)cc1
Technique: competition with immobilised ligand
Tested at: 1 µM
Endpoint: remaining binding
AXL (Homo sapiens, UniProt P30530); cell-free assay: 76%
RPS6KB1 (Homo sapiens, UniProt P23443); cell-free assay: 89%
HUNK (Homo sapiens, UniProt P57058); cell-free assay: 100%
SIK3 (Homo sapiens, UniProt Q9Y2K2); cell-free assay: 86%
Tyrosine-protein kinase ABL1, phosphorylated (ABL1, Homo sapiens, UniProt P00519, E255K); binding: 100%
TLK1 (Homo sapiens, UniProt Q9UKI8); cell-free assay: 90%
PRKD2 (Homo sapiens, UniProt Q9BZL6); cell-free assay: 85%
PIM2 (Homo sapiens, UniProt Q9P1W9); cell-free assay: 94%
NIM1K (Homo sapiens, UniProt Q8IY84); cell-free assay: 90%
Non-receptor tyrosine-protein kinase TYK2, JH2 (TYK2, Homo sapiens, UniProt P29597); cell-free assay: 100%
NUAK2 (Homo sapiens, UniProt Q9H093); cell-free assay: 100%
MAP3K13 (Homo sapiens, UniProt O43283); cell-free assay: 88%

Excerpt of the above (set 2):
CLK2 (Homo sapiens, UniProt P49760): 97.7%
EPHA2 (Homo sapiens, UniProt P29317): 92.7%
CAMKK1 (Homo sapiens, UniProt Q8N5S9): 91.7%
MUSK (Homo sapiens, UniProt O15146): 68.5%
SRPK1 (Homo sapiens, UniProt Q96SB4): 100%
SIK2 (Homo sapiens, UniProt Q9H0K1): 56.5%
RPS6KA3 (Homo sapiens, UniProt P51812): 70.6%
CLK1 (Homo sapiens, UniProt P49759): 111%
JAK1 (Homo sapiens, UniProt P23458): 97.8%
